Experimental data collected from several papers.
A part holds a random share of what one study measured.
Sequence of UniProt Q13131 (whole entry, looked up): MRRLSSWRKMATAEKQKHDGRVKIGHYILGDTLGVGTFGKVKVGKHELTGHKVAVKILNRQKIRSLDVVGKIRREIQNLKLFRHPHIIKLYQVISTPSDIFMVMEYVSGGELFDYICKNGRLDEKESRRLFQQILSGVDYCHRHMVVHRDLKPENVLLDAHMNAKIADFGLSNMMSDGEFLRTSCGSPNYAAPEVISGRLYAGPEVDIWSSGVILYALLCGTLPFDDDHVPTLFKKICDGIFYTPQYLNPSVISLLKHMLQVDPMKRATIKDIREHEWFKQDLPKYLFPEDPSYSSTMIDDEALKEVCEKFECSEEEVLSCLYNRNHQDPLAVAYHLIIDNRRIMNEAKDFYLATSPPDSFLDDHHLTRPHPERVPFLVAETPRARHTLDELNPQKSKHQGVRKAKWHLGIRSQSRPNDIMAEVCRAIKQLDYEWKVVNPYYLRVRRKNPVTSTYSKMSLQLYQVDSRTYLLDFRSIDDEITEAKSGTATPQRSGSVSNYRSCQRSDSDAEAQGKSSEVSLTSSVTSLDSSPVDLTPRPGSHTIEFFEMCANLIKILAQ
Sequence of UniProt P48039 (whole entry, looked up): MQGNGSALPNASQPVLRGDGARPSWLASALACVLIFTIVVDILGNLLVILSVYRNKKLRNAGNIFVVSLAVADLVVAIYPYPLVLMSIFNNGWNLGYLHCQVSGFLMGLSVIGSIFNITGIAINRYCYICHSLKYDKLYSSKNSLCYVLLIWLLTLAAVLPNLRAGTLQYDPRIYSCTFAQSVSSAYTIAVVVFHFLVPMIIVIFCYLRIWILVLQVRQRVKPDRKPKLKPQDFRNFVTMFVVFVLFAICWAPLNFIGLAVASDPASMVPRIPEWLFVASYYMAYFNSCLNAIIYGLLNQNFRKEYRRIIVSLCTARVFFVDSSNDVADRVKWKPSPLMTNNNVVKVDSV
Sequence of UniProt O76039 (whole entry, looked up): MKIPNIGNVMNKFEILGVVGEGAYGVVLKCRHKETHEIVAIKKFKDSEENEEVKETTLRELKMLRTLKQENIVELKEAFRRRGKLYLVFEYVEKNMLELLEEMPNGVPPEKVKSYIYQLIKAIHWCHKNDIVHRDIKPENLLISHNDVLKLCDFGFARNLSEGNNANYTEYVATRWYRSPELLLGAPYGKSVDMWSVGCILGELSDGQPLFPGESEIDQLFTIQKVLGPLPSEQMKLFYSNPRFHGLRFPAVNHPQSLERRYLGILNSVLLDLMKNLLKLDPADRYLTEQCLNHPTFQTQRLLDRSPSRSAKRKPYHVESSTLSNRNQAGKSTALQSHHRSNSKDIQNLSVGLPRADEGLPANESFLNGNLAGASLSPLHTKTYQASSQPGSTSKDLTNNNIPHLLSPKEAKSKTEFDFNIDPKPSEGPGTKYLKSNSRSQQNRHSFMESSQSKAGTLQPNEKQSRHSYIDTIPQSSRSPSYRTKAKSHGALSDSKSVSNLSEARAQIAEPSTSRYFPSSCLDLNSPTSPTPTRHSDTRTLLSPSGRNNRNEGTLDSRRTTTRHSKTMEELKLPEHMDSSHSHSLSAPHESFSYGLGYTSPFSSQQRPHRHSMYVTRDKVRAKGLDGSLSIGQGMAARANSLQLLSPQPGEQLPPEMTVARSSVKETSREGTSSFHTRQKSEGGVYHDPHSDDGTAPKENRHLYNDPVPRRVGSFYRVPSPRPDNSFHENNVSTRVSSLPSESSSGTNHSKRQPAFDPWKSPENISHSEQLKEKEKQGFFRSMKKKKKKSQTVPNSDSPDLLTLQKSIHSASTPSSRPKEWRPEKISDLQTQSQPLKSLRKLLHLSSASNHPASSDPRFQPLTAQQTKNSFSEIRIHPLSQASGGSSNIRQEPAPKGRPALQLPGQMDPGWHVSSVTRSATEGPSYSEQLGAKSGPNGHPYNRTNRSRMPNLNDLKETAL
Sequence of UniProt P68400 (whole entry, looked up): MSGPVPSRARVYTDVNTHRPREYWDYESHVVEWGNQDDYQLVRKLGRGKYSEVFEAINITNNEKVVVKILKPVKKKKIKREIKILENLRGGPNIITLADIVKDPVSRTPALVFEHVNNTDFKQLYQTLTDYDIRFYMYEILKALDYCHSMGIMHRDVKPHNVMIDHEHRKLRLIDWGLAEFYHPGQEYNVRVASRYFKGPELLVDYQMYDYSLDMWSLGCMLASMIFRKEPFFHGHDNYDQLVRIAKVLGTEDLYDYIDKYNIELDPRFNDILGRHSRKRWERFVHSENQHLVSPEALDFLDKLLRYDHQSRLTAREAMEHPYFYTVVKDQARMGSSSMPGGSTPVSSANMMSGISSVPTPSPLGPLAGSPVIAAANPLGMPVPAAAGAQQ
Sequence of UniProt P49137 (whole entry, looked up): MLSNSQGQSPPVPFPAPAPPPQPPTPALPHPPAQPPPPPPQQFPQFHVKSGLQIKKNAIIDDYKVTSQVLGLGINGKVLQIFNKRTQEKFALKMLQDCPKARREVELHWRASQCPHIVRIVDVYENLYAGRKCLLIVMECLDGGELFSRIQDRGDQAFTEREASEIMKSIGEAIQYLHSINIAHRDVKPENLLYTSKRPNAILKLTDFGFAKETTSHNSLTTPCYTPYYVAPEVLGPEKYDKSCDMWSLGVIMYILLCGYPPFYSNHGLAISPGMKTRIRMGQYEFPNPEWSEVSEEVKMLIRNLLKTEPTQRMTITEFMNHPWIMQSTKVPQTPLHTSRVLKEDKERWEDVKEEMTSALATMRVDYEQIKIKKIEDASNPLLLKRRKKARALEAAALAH
Sequence of UniProt Q9HAZ1 (whole entry, looked up): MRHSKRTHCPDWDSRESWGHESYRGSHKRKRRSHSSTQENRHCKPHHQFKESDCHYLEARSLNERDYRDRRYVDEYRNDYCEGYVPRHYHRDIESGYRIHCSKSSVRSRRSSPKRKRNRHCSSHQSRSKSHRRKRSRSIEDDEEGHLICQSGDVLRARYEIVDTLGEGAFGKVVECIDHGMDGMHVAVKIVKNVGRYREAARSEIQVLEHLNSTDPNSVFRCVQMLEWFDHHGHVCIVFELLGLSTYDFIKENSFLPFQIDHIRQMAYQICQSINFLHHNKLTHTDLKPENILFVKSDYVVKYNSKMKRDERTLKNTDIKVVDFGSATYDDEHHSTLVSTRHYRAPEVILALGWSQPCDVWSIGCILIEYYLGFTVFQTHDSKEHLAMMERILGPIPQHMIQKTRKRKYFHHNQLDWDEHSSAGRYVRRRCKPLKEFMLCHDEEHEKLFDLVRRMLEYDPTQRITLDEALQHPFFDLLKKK
Sequence of UniProt P06241 (whole entry, looked up): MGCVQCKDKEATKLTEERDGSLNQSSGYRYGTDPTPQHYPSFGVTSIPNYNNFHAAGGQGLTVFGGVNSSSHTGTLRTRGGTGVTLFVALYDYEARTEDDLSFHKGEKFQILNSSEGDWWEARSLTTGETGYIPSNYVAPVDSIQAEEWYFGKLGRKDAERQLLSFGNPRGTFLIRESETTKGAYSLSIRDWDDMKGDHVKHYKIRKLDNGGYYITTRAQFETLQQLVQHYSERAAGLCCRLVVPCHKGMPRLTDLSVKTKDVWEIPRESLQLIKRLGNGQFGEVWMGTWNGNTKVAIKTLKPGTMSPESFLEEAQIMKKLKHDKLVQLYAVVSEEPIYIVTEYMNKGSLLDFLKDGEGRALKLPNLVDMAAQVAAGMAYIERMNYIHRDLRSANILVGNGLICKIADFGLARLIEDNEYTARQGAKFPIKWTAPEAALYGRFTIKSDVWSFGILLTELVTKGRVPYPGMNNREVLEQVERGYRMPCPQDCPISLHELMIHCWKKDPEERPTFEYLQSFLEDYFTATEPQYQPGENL
Sequence of UniProt O96013 (whole entry, looked up): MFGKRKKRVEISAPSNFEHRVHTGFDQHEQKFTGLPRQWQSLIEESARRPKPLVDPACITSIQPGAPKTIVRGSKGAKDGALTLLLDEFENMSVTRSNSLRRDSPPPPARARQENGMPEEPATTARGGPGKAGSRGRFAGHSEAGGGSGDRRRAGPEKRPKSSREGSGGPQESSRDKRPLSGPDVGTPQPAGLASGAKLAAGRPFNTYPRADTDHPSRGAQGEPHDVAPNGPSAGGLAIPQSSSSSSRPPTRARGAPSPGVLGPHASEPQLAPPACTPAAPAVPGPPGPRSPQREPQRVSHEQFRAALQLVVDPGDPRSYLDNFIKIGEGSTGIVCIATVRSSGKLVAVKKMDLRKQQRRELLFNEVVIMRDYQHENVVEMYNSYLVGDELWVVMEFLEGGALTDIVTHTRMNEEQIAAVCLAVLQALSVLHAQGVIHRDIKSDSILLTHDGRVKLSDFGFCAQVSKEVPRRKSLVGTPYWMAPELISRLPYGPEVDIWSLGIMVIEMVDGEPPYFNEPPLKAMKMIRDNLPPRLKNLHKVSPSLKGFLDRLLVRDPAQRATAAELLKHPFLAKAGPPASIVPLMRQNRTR
Sequence of UniProt O75914 (whole entry, looked up): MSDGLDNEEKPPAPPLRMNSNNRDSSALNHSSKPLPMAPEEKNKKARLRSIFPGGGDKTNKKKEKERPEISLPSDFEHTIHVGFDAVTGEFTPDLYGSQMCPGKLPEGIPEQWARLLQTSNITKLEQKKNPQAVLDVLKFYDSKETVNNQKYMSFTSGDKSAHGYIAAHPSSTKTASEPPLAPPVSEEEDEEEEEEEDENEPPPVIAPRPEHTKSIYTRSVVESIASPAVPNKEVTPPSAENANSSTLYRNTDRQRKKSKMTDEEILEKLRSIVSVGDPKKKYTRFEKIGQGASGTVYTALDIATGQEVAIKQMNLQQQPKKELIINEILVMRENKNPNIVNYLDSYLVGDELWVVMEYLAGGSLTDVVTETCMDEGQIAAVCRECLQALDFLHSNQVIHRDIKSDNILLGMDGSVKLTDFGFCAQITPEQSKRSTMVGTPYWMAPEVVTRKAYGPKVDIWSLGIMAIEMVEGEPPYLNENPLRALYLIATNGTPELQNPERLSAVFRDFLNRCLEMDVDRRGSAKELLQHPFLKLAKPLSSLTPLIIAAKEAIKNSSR

Study 1 — observed: binding; method: competition with immobilised ligand; concentration: 1 µM
SMILES: [2H]c1c([2H])c([C@]2([2H])CCCN2C(=O)C(C)(C)Oc2ccc3cn[nH]c3c2)c([2H])c([2H])c1C([2H])([2H])[2H]
target | remaining binding [%]
FYN (Homo sapiens, UniProt P06241) | 66
MAP2K1 (Homo sapiens, UniProt Q02750) | 85
PAK4 (Homo sapiens, UniProt O96013) | 89
CSNK2A1 (Homo sapiens, UniProt P68400) | 76
PRKAA1 (Homo sapiens, UniProt Q13131) | 76
PAK3 (Homo sapiens, UniProt O75914) | 64
CDKL5 (Homo sapiens, UniProt O76039) | 98
Cyclin-dependent kinase 4, with cyclin D3 (CDK4, Homo sapiens, UniProt P11802) | 69

Mixed results
PRKAA1: 5'-AMP-activated protein kinase catalytic subunit alpha-1 (PRKAA1, Homo sapiens, UniProt Q13131)
SMILES | target or system | assay | test system | setting | measurement | result
CCCCC(=O)Nc1ccc(-c2ccc3ncn(CCC)c(=O)c3c2)cn1 | PRKAA1 | binding, competition with immobilised ligand |  | 0.5 µM | remaining binding | 100%
CCN(O)N=Nc1ccc(S(=O)(=O)Nc2nccs2)cc1 |  | DPPH scavenging, absorbance |  | 180 µg/mL | inhibition | 17.5%
COc1cccc2c1CCN(C(=O)C1(C(N)=O)CC1)C2 | MTNR1A (Homo sapiens, UniProt P48039) | cAMP, agonist, luciferase |  |  | EC50 | 292 nM
C1=C/COCc2cc(ccc2OCCN2CCCC2)Nc2nccc(n2)-c2cccc(c2)COC/1 | CLK4 (Homo sapiens, UniProt Q9HAZ1) | binding |  | 0.1 µM | remaining binding | 14%
C#CC[C@H](NC(=O)CCCCC[N+]1=C(C=CC2=CC(=CC=C3N(C)c4ccc(S(=O)(=O)O)cc4C3(C)C)CCC2)C(C)(C)c2cc(S(=O)(=O)[O-])ccc21)C(=O)NCCCCCC(=O)NCCCC[C@H](NC(=O)N[C@@H](CCC(=O)O)C(=O)O)C(=O)O |  |  | PBS | pH 7.4 | solubility | ≥ 200 µM
Cc1cc([C@@H](C)Nc2ccccc2C(=O)O)c2nc(N3CCC(F)(F)CC3)c(C#N)c(=O)n2c1 | MAPKAPK2 (Homo sapiens, UniProt P49137) | binding, competition with immobilised ligand |  | 10 µM | remaining binding | 67%
CNc1ncc2c(/C=C/C(=O)N3CCC(OC)CC3)nn(Cc3cccc(C(F)(F)F)c3)c2n1 | PRKAA1 | enzyme activity, inhibitor, radiometric |  | 1 µM | remaining activity | 94%
O=C1O[C@H]([C@@H](O)CO)C(O)=C1O |  | DPPH scavenging, absorbance |  | 10 µg/mL | inhibition | 45.9%
O=C(Nc1ccc(Oc2nnc(-c3ccc(Cl)cc3)c3ccccc23)cc1)c1ccccc1 | HepG2 | cell growth or viability, MTT |  | 2.5 µM | cell death | 96.6%

Excerpt of the above (study 1):
target | remaining binding [%]
CDKL5 (Homo sapiens, UniProt O76039) | 98
Cyclin-dependent kinase 4, with cyclin D3 (CDK4, Homo sapiens, UniProt P11802) | 69
